Experimental data pooled from the literature.
Each line is one published result; not all experiments were run side by side.
Organism: Mycobacterium tuberculosis

CCC(CO)NCCNC(CC)CO.COC(=O)C=C1SC(=NN=Cc2ccc(OC(=O)CN3C(=O)CSC3=O)cc2)NC1=O  MIC (growth in combination; H37Rv; added: reference drug at 1/2 MIC): 0.5 µg/mL
CCc1nc2cc(C(F)(F)F)ccn2c1C(=O)NCc1ccc2oc(-c3ccc(OC(F)(F)F)cc3)nc2c1  MIC (optical density; H37Rv; 144 h): > 25 µM
COc1c(N2CC3CCCNC3C2)c(F)cc2c(=O)c(C(=O)OCc3ccc([N+](=O)[O-])o3)cn(C3CC3)c12 (centres unmarked)  MIC (microbial growth; H37RV): 8 µM
O=c1c(N2CCCC2)c(Cl)cnn1-c1ccccc1  MIC (bacterial growth; H37Rv, 7H9 medium with OADC): 910 µM
Cc1nc(=O)[nH]c(C)c1/N=N/c1nnc(S)[nH]1  MIC (microbial growth, resazurin; H37RV; 5 days): > 64 µg/mL
NC(=S)N/N=C/c1ccc(OC(=O)CC2SC(=O)NC2=O)cc1 (centres unmarked)  MIC (Alamar blue; 192): 2.84 µM
COc1ccc2ncc(F)c(C[C@H](O)[C@H]3OC[C@H](NCc4ccc(C)cc4)CO3)c2n1  MIC (microbial growth; H37RV): ≤ 1 µg/mL
Cc1nc2ccc(Br)cn2c1C(=O)NCc1ccc2oc(-c3ccc(Cl)cc3)nc2c1  MIC (optical density; H37Rv; 144 h): 0.2 µM
CCN(CC)CCCNc1ccc2ncn3c4ccc(O)cc4c(=O)c1c23  MIC (microbial growth; H37RV; 7 days): 4 to 8 µg/mL
Cc1ccc2nc(C)c(CC(=O)NCc3ccccc3)n2c1  MIC (microbial growth, resazurin; H37RV): 19 µM
NC(=S)N/N=C/c1ccc(OC(=O)/C=C2\SC(=O)NC2=O)cc1  MIC (Alamar blue; 192): 5.71 µM
CCc1ccn2c(C(=O)N(C)Cc3ccccc3)c(C)nc2c1  MIC (microbial growth; H37RV; 5 days): > 20 µM
Cc1nc2ccc(OC(F)(F)F)cn2c1C(=O)NCc1ccc2oc(-c3ccc(Cl)cc3)nc2c1  MIC (optical density; H37Rv; 144 h): > 10 µM
O=C(CN1C(=O)CSC1=O)Oc1ccc(/C=N/NC(=O)c2ccncc2)cc1Cl  MIC (microbial growth, resazurin; H37RV): 0.144 µM
COc1ccc2nccc(CC[C@H]3OC[C@H](NC(=O)c4ccc5c(n4)NC(=O)CS5)CO3)c2c1  MIC (microbial growth; H37RV): ≤ 1 µg/mL
CCc1ccn2c(C(=O)NC(C)c3ccccc3)c(C)nc2c1 (centres unmarked)  MIC (microbial growth; H37RV; 5 days): 2.5 µM
COCCOc1ccc(Nc2cc(-c3ccccn3)nc3ncnn23)cc1  MIC (microbial growth; H37RV; 5 days): > 100 µM
CCSc1cnn(-c2ccccc2)c(=O)c1Cl  MIC (bacterial growth; H37Rv, 7H9 medium): 470 µM
CCc1nc2cc(Br)ccn2c1C(=O)NCc1ccc2oc(-c3ccc(Cl)cc3)nc2c1  MIC (optical density; H37Rv; 144 h): > 10 µM
CC(C)C[C@H](NC(=O)[C@H](C)NC(=O)[C@H](CCC(=O)O)NC(=O)[C@@H](N)Cc1c[nH]cn1)C(=O)N[C@H](C(=O)N[C@@H](CC(=O)O)C(=O)N1CCC[C@H]1C(=O)N[C@@H](CC(=O)O)C(=O)O)[C@@H](C)OP(=O)(O)O  MIC (H37Rv): > 100 µg/mL
COc1c(N2CC3CCCNC3C2)c(F)cc2c(=O)c(C(=O)OCc3ccc([N+](=O)[O-])cc3)cn(C3CC3)c12 (centres unmarked)  MIC (microbial growth; H37RV): 2 µM
Cc1nc(=O)[nH]c(C)c1/N=N/c1nnc(S)s1  MIC (microbial growth, resazurin; H37RV; 5 days): > 64 µg/mL
Cc1ccc(-c2nc3ccc(C)cn3c2C(=O)C(=O)NCc2ccc(N(C)C)cc2)cc1  MIC (microbial growth, resazurin; H37RV): > 50 µM
Cc1nc(=S)[nH]c(C)c1/N=N/c1nnc(S)s1  MIC (microbial growth, resazurin; H37RV; 5 days): 4 to 64 µg/mL
FC(F)(F)c1ccc(CCNc2cc(-c3ccco3)nc3nncn23)cc1  MIC (microbial growth; H37RV; 5 days): 1.6 µM
Cc1nc2ccc(C(F)(F)F)cn2c1C(=O)NCc1ccc2oc(-c3ccc(OC(F)(F)F)cc3)nc2c1  MIC (optical density; H37Rv; 144 h): > 25 µM
O=c1c(Cl)c(Cl)cnn1Cc1ccccc1  MIC (bacterial growth; H37Rv, 7H9 medium): 250 µM
COc1ccc2nccc(CC[C@H]3OC[C@H](NC(=O)c4ccc(Cl)c(Cl)c4)CO3)c2c1  MIC (microbial growth; H37RV): ≤ 1 µg/mL
CCC(CO)NCCNC(CC)CO.CCOc1cc(C=NNC(=O)c2ccncc2)ccc1OC(=O)CN1C(=O)CSC1=O  MIC (growth in combination; H37Rv; added: reference drug at 1/2 MIC): 0.5 µg/mL
Cc1[nH]n(-c2ccccc2)c(=O)c1/N=N/c1nnc(S)[nH]1  MIC (microbial growth, resazurin; H37RV; 5 days): > 64 µg/mL
CCCCNc1c(Cl)cnn(-c2ccccc2)c1=O  MIC (bacterial growth; H37Rv, 7H9 medium): 900 µM
Cc1[nH][nH]c(=O)c1/N=N/c1nnc(S)[nH]1  MIC (microbial growth, resazurin; H37RV; 5 days): > 64 µg/mL
Nc1cc(S(N)(=O)=O)ccc1O  MIC (pabC deletion mutant; concentration not given, 12 days): > 100 µM
O=C(CN1C(=O)CSC1=O)Oc1ccc(/C=N/NC(=O)c2ccncc2)cc1Br  MIC (microbial growth, resazurin; H37RV): 0.262 µM
COc1ccc2nccc(CC[C@H]3OC[C@H](NC(=O)c4ccc(C)cc4)CO3)c2c1  MIC (microbial growth; H37RV): > 32 µg/mL
Cc1nn(-c2ccccc2)c(C)c1/N=N/c1nnc(S)[nH]1  MIC (microbial growth, resazurin; H37RV; 5 days): > 64 µg/mL
COc1c(Cl)cnn(-c2cccc(C)c2)c1=O  MIC (microbial growth; H37RV): > 1000 µM
CCc1nc2cc(OC(F)(F)F)ccn2c1C(=O)NCc1ccc2oc(-c3ccc(OC(F)(F)F)cc3)nc2c1  MIC (optical density; H37Rv; 144 h): > 25 µM
CCCCN(CCCC)CC(O)COc1c2ccoc2c(OC)c2oc(CC)cc(=O)c12 (centres unmarked)  MIC (microbial growth, resazurin; 21 days): 16 µg/mL
COc1ccc2nccc(CC[C@H]3OC[C@H](NCc4ccc5c(c4)OCCO5)CO3)c2c1  MIC (microbial growth; H37RV): 32 µg/mL
Cc1nnc2nc(-c3ccccn3)cc(NCCc3ccc(OC(F)(F)F)cc3)n12  MIC (microbial growth; H37RV): 17 µM
CCOc1cc(C=NNC(=S)Nc2cccc(Cl)c2)ccc1OC(=O)CN1C(=O)CSC1=O.NNC(=O)c1ccncc1  MIC (growth in combination; 192; added: reference drug at 1/2 MIC): 0.0312 µg/mL
CCc1nc2ccc(OC(F)(F)F)cn2c1C(=O)NCc1ccc2oc(-c3ccc(Cl)cc3)nc2c1  MIC (optical density; H37Rv; 144 h): > 10 µM
O=C(CN1C(=O)CSC1=O)Oc1ccc(/C=N/NC(=S)Nc2cccc(Cl)c2)cc1Cl  MIC (microbial growth, resazurin; H37RV): 32.2 µM
CCc1ccn2c(C(=O)NCc3ccccc3)c(C)nc2c1  MIC (microbial growth, resazurin; H37RV): < 0.195 µM
Cc1nc2cc(Br)ccn2c1C(=O)NCc1ccc2oc(-c3ccc(Cl)cc3)nc2c1  MIC (optical density; H37Rv; 144 h): 10 µM
CCOc1c(Cl)cnn(-c2ccccc2)c1=O  MIC (bacterial growth; H37Rv, 7H9 medium): 500 µM

A few entries again:
NC(=S)N/N=C/c1ccc(OC(=O)CC2SC(=O)NC2=O)cc1 (centres unmarked)  MIC (Alamar blue; 192): 2.84 µM
COc1ccc2ncc(F)c(C[C@H](O)[C@H]3OC[C@H](NCc4ccc(C)cc4)CO3)c2n1  MIC (microbial growth; H37RV): ≤ 1 µg/mL
Cc1nc2ccc(Br)cn2c1C(=O)NCc1ccc2oc(-c3ccc(Cl)cc3)nc2c1  MIC (optical density; H37Rv; 144 h): 0.2 µM
CCN(CC)CCCNc1ccc2ncn3c4ccc(O)cc4c(=O)c1c23  MIC (microbial growth; H37RV; 7 days): 4 to 8 µg/mL
